Assay results of several laboratories.
Protocols differ between the studies behind these lines. ± gives the spread as reported.
B1: adiponectin; sequence looked up; chain ETTTQGPGVLLPLPKGACTGWMAGIPGHPGHNGAPGRDGRDGTPGEKGEKGDPGLIGPKGDIGETGVPGAEGPRGFPGIQGRKGEPGEGAYVYRSAFSVGLETYVTIPNMPIRFTKIFYNQQNHYDGSTGKFHCNIPGLYYFAYHITVYMKDVKVSLFKKDKAMLFTYDQYQENNVDQASGSVLLHLEVGDQVWLQVYGEGERNGLYADNDNDSTFTGFLLYHDTN
Sequence of UniProt O60656 (whole entry, looked up): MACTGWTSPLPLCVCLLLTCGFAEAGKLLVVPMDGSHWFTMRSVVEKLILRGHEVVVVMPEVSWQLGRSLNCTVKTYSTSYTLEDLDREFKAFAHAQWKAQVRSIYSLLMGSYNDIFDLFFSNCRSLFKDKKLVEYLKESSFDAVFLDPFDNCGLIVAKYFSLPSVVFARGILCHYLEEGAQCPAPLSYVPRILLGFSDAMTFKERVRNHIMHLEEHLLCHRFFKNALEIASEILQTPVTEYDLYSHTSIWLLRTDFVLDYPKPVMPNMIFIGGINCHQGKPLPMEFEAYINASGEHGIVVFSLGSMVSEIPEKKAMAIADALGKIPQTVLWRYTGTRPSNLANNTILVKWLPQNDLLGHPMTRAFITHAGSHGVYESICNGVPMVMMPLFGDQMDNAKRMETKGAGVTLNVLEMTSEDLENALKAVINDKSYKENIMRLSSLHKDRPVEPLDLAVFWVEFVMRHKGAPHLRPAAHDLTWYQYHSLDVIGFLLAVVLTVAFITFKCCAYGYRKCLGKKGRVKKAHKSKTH

COc1ccc(CSc2ccc3ccccc3c2)cc1N  IC50 (HUVEC; cell growth or viability, MTS; 48 h): 90.4 µM
VEGF  tube length (HUVEC; Matrigel; 10 ng/mL, 5 min bolus then 8 h washout; relative to: control media): 1.2 fold
COc1ccc(CS(=O)(=O)c2ccc3ccccc3c2)cc1N  IC50 (HUVEC; cell growth or viability, MTS; 48 h): 0.416 µM
UGT1A9 (Homo sapiens, UniProt O60656)  Vmax (COc1ccccc1-c1oc2ccccc2c(=O)c1O; steady-state kinetics; pH 7.4, 37 °C): 0.0038 µmol/min/mg
COc1ccc(C[S+]([O-])c2ccc3cc(Br)ccc3c2)cc1N (stereo not shown)  IC50 (HUVEC; cell growth or viability, MTS; 48 h): 2.5 µM
COc1ccc2cc3[n+](cc2c1OCCc1cn(Cc2ccc(C(F)(F)F)cc2)nn1)CCc1cc2c(cc1-3)OCO2  IC50 (HUVEC; cell growth or viability, MTT): 14.4 µM
LRRFSTMPFMFTNINNVTNF  inhibition (HUVEC; cell migration, real-time cell analysis; peptide; 50 µM, with: full medium chemoattractant; relative to: vehicle): 96.08 ± 0.15%
COc1ccc2cc3[n+](cc2c1OCCc1cn(Cc2ccc(F)cc2F)nn1)CCc1cc2c(cc1-3)OCO2  IC50 (HUVEC; cell growth or viability, MTT): 12.1 µM
COc1ccc(C[S+]([O-])c2ccc3ccccc3c2)cc1N (stereo not shown)  IC50 (HUVEC; cell growth or viability, MTS; 48 h): 5.6 µM
LRRFSTMPFMFGNINNVGNF  inhibition (HUVEC; cell adhesion, real-time cell analysis; peptide; 100 µM, 3 h; relative to: vehicle): 97.8 ± 0.15%
COc1ccc2cc3[n+](cc2c1OCCc1cn(Cc2cccc(C(F)(F)F)c2)nn1)CCc1cc2c(cc1-3)OCO2  IC50 (HUVEC; cell growth or viability, MTT): 42.6 µM
LRRFSTMPFMFVNINNVVNF  inhibition (HUVEC; cell migration, real-time cell analysis; peptide; 50 µM, with: full medium chemoattractant; relative to: vehicle): 98.78 ± 0.14%
B1 (adiponectin)  EC50 (HUVEC; PBL transendothelial migration, inhibitor; 1 h pretreatment, static, with: TNF-α and IFN-γ): 2.6 nM
